Measured values pooled from the literature.
Lines come from different studies, so protocols differ. ± marks the error that the study gave.

For `CC(CCC(=O)NCc1ccc(C(=O)NO)cc1)C1CCC2C3C(O)CC4CC(O)CCC4(C)C3CCC12C` (stereo not shown), kidney weight read “decreased” (PCK rats; oral gavage, 15 mg/kg/day, 5 months; reference: untreated).
For `Cc1ncc2c(n1)CN(C(=O)Nc1nc(-c3cccs3)ccc1N)C2`, “total spine density increase” read 21% (wild type mouse, hippocampal CA1; oral, 1 mg/kg daily, 14 days; reference: vehicle).
`Cc1cnc(Nc2cc(C)c(C)c(C)c2)nc1Nc1ccc2oc(=O)[nH]c2c1`: STAT5a phosphorylation “inhibited” (measured: phospho-STAT5a; rat, OVA asthma model, whole lung homogenate; intratracheal, dose not given, 2 h after OVA challenge; reference: OVA vehicle).
`Cc1nc(C)c(C=[N+]([O-])C(C)(C)C)nc1C`: “protein level increase” 17.1% (Western blot, measured: HO-1; mouse, MPTP model, substantia nigra nuclei; 90 mg/kg).
`CCCCOCc1cn(-c2cc(Cl)ccc2Cl)nn1` gave a clotting time of 44.5 ± 0.7 s (aPTT; human plasma; 1 µM).
`Cc1cc(C)c(-c2ccc(NC(=O)[C@H](Cc3ccc(C(=O)NCCS(=O)(=O)O)cc3)c3ccc(-c4ccc(C(C)(C)C)cc4)cc3)cc2)c(C)c1` — result for glucose AUC: “decreased” (glucagon challenge test; mouse, HFD-induced obese; oral, 50 mg/kg, added: glucagon 15 µg/kg ip).
Under “paw edema inhibition”, `O=S(=O)(c1ccccc1)N(CCc1nnc(S)o1)c1ccc(Cl)cc1` is recorded as 60.1% (rat; 200 mg/kg, 5 h, added: carrageenan).
For `CC[C@H]1[C@@H](O)[C@@H]2[C@H](CC[C@]3(C)[C@@H]([C@H](C)CCOS(=O)(=O)[O-])CC[C@@H]23)[C@@]2(C)CC[C@@H](O)C[C@@H]12.[Na+]`, “plasma total cholesterol” read 11.1 ± 0.3 mmol/L (ob/ob NASH mice, plasma; oral, 10 mg/kg once daily, baseline before treatment, 8 wk study).
For `Cc1cc(O)c(C=O)c2c1C(=O)Oc1c(CO)c(O)c3c(c1O2)C(O)OC3=O` (stereo not shown), “seminiferous tubule diameter” read 235 ± 10.4 µm (histopathology; rat, male, streptozotocin-induced diabetes, testis; 10 mg/kg, 9 weeks).
With `Cc1cc(Nc2cc3ncccc3c(N[C@@H]3C[C@H]4CC[C@@H](C3)N4CCC#N)n2)n[nH]1` the endoscopic response was 20% (moderate-severe ulcerative colitis patients; 20 mg, day 28; reference: patients).
`CC(C)[C@H](NC(=O)CN)C(=O)N[C@@H](CCCCN)C(=O)NCC(=O)N[C@@H](CC(=O)O)C(=O)N[C@@H](CCCCN)C(=O)NCC(=O)N[C@@H](CC(N)=O)C(=O)N1CCC[C@H]1C(=O)NCC(=O)N[C@@H](Cc1c[nH]c2ccccc12)C(=O)N1CCC[C@H]1C(=O)NCC(=O)N[C@@H](C)C(=O)N1CCC[C@H]1C(=O)O`: cell motility “no inhibition” (K1735 M4 melanoma, mouse; dose not given, soluble peptide, added: type I collagen-coated filters).
`Cc1cc(NC(=O)[C@H](O)c2cc(F)cc(F)c2)ccc1-c1cnc(N)c(C(=O)NC(C)C)c1`: “time to pPERK baseline” ≤ 12 h (measured: phospho-PERK; mouse, pancreas; oral, 30 mg/kg single).
`CCC1CC2C(C)=CC3C(=O)CCCC3C=CC(C)=CC2C(=O)O1` (stereo not shown) — result for “total soluble Aβ reduction”: 49.7% (dot blot; 5XFAD transgenic mouse, cortex; oral, 30 mg/kg/day three times per week, 1 month; reference: vehicle).
The clotting time of `CCCCCCCCCC(=O)OCc1cn(-c2ccc(Cl)cc2)nn1` is reported as 47.8 ± 0.7 s (aPTT; human plasma; 1 µM).
`C[C@H]1CN(C(=O)c2cn(-c3ccnc(N)n3)c3cc(C#CC4(O)CCCCC4)ccc23)CCN1`: “mice with lung metastases” 34.6% (A549, mice, lung metastasis model; intravenous, 25 mg/kg daily).
With `Nn1c(S)nnc1CCN(c1ccc(Cl)cc1)S(=O)(=O)c1ccccc1` the inhibition was 67.6% (paw oedema; rat carrageenan oedema; dose not given, 6 h).
For `COc1ccc(C2CC(c3ccc(C)cc3)=Nc3ccccc3S2)cc1` (stereo not shown), the blood glucose was 117 ± 4.71 mg/dL (rat, normal, overnight fasted; oral, 20 mg/kg, 60 min, oral glucose tolerance test, added: glucose 3 g/kg oral).
For `COc1ccc2c(c1)c(CC(=O)OCOC(C)=O)c(C)n2C(=O)c1ccc(Cl)cc1`, “latency of nociceptive response” read 16 ± 0.54 s (hot plate test; BALB/c mice; 50 mg/kg, 90 min).
Under “log2 fold change”, `C=C(c1ccc(C(=O)O)c(F)c1)c1cc2c(cc1C)C(C)(C)C=CC2(C)C` is recorded as -1.78 (RNA sequencing, measured: Abca1 mRNA; rat, brain; dose not given, 24 h, single dose; reference: vehicle).
`CC(=O)c1cnc(N)nc1N1CC[C@H]1c1nn2ccc(Cl)c2c(=O)n1-c1ccccc1` gave an ED50 of 0.25 mg/kg (arthritic inflammation; rat collagen-induced arthritis; oral, twice daily).
The clotting time of `O/N=C/c1cnn(-c2ccccc2)n1` is reported as 15.2 ± 0.5 s (prothrombin time; human plasma; 10 µM).
`Cc1cc2c(cc1O)C=C1C=CC(=O)C(C)(C)[C@H]1CC2`: “immune cell proportion” “no effect” (measured: macrophages, DCs, MDSCs; C57BL/6J mouse antibiotic-treated DSS colitis, colon; dose not given; reference: DSS alone).
`C=C1C(=O)OC2C1CCC1(C)OC13CC1OC1(C)C23` (single isomer, unassigned) — result for “tumour growth inhibition”: 78 to 88% (sarcoma M-1, outbred white rat; intraperitoneal, maximum tolerated dose, daily, 5 days).
`CCC(NC(=O)C(CC(C)C)NC(=O)CCc1ccccc1)C(=O)C(=O)NCc1cc(F)cc(OC)c1` (stereo not shown): neuronal damage “no effect” (TUNEL; mouse traumatic brain injury model (controlled cortical impact); up to 10 mg/kg).
For `C=C(c1cc(F)c(C(=O)O)c(F)c1)c1cc2c(cc1C)C(C)(C)CCC2(C)C`, “log2 fold change” read 0.44 (RNA sequencing, measured: Nmu; rat, brain; dose not given, 24 h; reference: vehicle).
With `COc1ccc2c(c1OC)C(C(Cl)(Cl)Cl)N1CCc3cc4c(cc3C1=C2)OCO4` (stereo not shown) the SOD activity was 8.1 ± 0.77 U/mg protein (rat, STZ-induced diabetic, liver; oral, 12 mg/kg, day 28).
`O=[N+]([O-])c1cccc(S(=O)(=O)NC[C@@H](O)[C@@H]2CCc3cc(F)ccc3O2)c1` gave a paw volume of 0.77 ± 0.28 mL (rat, carrageenan paw oedema; oral, 100 mg/kg, 3 h after carrageenan).
`Cc1ccc(C(=O)Nc2ccc(CP(=O)(O)O)cc2CP(=O)(O)O)cc1NC(=O)c1cccc(NC(=O)Nc2cccc(C(=O)Nc3cc(C(=O)Nc4ccc(CP(=O)(O)O)cc4CP(=O)(O)O)ccc3C)c2)c1`: “clotting time ratio” 1.11 to 2.72 fold (aPTT; FXI-deficient human plasma; 233 to 467 µM, added: 4.8 nM factor XIa; reference: untreated).
The clotting time of `OCc1cnn(-c2ccccc2)n1` is reported as 15.4 ± 0.8 s (prothrombin time; human plasma; 10 µM).
Under “depolymerization rate constant”, `C[C@H](NC(=O)COC(=O)[C@H](C)NC(=O)CO)C(=O)O` is recorded as 0.914 h⁻¹ (water; pH 6, 50 °C).
Under “cytosolic to membrane αS ratio”, `Cc1c(C(=O)Nc2ccn(C)n2)ncn1Cc1cccc(C(F)(F)F)c1` is recorded as “no effect” (human WT αS transgenic mouse, cortex; dose not given; reference: placebo).

For quick reference, copied from above:
For `CC(CCC(=O)NCc1ccc(C(=O)NO)cc1)C1CCC2C3C(O)CC4CC(O)CCC4(C)C3CCC12C` (stereo not shown), kidney weight read “decreased” (PCK rats; oral gavage, 15 mg/kg/day, 5 months; reference: untreated).
For `Cc1ncc2c(n1)CN(C(=O)Nc1nc(-c3cccs3)ccc1N)C2`, “total spine density increase” read 21% (wild type mouse, hippocampal CA1; oral, 1 mg/kg daily, 14 days; reference: vehicle).
`Cc1cnc(Nc2cc(C)c(C)c(C)c2)nc1Nc1ccc2oc(=O)[nH]c2c1`: STAT5a phosphorylation “inhibited” (measured: phospho-STAT5a; rat, OVA asthma model, whole lung homogenate; intratracheal, dose not given, 2 h after OVA challenge; reference: OVA vehicle).
`Cc1nc(C)c(C=[N+]([O-])C(C)(C)C)nc1C`: “protein level increase” 17.1% (Western blot, measured: HO-1; mouse, MPTP model, substantia nigra nuclei; 90 mg/kg).
`CCCCOCc1cn(-c2cc(Cl)ccc2Cl)nn1` gave a clotting time of 44.5 ± 0.7 s (aPTT; human plasma; 1 µM).
